Results collected from several papers.
Every numbered part comes from another study and shows a few of its results, in no order.

Set 1
Target: Sal-like protein 4, full length isoform A (SALL4, Homo sapiens, UniProt Q9UJQ4, residues 1-1053)
Sequence of UniProt Q9UJQ4 (whole entry, looked up): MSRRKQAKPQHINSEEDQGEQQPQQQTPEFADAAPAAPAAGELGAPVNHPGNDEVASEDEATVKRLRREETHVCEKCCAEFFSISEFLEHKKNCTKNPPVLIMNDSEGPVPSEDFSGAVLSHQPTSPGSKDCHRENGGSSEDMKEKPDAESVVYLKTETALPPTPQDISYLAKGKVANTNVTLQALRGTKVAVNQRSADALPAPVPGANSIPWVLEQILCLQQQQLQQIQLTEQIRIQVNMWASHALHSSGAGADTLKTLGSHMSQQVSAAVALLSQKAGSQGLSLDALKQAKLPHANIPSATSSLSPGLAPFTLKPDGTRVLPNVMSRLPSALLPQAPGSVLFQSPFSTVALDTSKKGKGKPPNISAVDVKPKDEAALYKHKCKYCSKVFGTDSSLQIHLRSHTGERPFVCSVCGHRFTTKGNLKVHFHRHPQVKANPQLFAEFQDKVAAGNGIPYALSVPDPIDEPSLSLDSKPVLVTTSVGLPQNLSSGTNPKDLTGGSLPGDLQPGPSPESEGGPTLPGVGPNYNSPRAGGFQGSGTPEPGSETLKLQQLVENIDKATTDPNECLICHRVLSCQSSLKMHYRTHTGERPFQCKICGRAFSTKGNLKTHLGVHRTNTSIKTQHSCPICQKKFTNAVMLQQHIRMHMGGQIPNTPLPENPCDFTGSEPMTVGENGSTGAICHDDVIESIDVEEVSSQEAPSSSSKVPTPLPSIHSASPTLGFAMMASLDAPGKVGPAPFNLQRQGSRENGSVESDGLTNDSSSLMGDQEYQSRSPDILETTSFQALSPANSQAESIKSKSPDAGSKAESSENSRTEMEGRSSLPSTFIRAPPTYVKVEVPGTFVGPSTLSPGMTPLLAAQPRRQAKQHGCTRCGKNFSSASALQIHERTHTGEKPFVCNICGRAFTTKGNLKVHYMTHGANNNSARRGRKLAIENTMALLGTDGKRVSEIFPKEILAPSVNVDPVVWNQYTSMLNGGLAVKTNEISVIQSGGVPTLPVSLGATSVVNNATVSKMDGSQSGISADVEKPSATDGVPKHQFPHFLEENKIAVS
Method: universal PBM
Molecule type: double-stranded DNA, one strand shown
Sample: in vitro
Tested at: 600 nM
Notes: 8-mer, flanks averaged, mean of replicates
Direction: higher = stronger binding
Quantity: E-score
CTGTCATC: -0.0642
AAAAAGAG: 0.0899
ACACCAGT: -0.18
CCAGCCCC: -0.257
AAGAACAA: 0.241

Set 2
Target: Phosphate system positive regulatory protein PHO4, full length, GST-tagged (PHO4, Saccharomyces cerevisiae, UniProt P07270, residues 1-312)
Method: competition protein-binding microarray
Molecule type: double-stranded DNA, one strand shown
Sample: in vitro
Tested at: 2 µM
Notes: whole 60-bp probe, lowest competitor level
With: Cbf1 competitor, 0.05 µM
Direction: higher = stronger binding
Quantity: fluorescence intensity
Residues (chain): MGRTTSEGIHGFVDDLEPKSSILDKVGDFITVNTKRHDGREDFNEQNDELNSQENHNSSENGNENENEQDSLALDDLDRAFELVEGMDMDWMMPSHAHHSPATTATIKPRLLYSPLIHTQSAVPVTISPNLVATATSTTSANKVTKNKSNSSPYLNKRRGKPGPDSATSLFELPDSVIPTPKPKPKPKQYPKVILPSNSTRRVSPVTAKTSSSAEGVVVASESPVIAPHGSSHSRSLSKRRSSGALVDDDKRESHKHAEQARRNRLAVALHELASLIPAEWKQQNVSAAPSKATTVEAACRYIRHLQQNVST
CGTCCTAGTGATTGTTTAGTGGGTGCCATGAGGAAGGTCTTGATTCGCTTGACGCTGCTG: 6690 a.u.
CTTCTGTAAATTTGGATTGTGGGTGGACGCGCCCCGGTCTTGATTCGCTTGACGCTGCTG: 4230 a.u.
CCGGTAATGGCGGAGCATGTGATGGAGGAATGGGCGGTCTTGATTCGCTTGACGCTGCTG: 8450 a.u.
TACTATTATTAGACTTCATTACTGAGTTTATTAGTTGTCTTGATTCGCTTGACGCTGCTG: 3330 a.u.

Set 3
Target: RING finger protein unkempt homolog, zinc fingers 1-6, SBP tag (UNK, Homo sapiens, UniProt Q9C0B0, residues 30-357)
Sequence of UniProt Q9C0B0 (30-357, looked up): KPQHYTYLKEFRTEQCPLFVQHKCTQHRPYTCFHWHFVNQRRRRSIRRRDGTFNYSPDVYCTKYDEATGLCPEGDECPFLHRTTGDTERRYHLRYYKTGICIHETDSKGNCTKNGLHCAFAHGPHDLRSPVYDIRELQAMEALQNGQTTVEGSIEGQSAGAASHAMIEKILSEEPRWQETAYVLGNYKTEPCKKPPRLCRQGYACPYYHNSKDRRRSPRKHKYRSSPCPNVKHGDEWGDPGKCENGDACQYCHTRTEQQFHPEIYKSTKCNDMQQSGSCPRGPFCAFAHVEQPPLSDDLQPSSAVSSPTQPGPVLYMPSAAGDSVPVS
Method: RNA Bind-n-Seq
Molecule type: RNA
Sample: in vitro
Tested at: 100 nM
Notes: RNA with constant flanks, vertebrate orthologous sites, ends assumed
Reference: input RNA pool
Direction: higher = stronger binding
Quantity: bound/input enrichment
GGGAGUUCUACAGUCCGACGAUCGACGUAUUUAUACUGGCCAAACAUUUUUGACUUGUAUUUCUUUGUCCUUUUUUGGUAGUUCUCGUUGUUACCCGCACCAUUUUUAUGUCUCCUUCACUGAAGGGCUAGAGUUUUAACUUUCAACAGAGGAUUGAGCAUCA: 0.434 ratio
GGGAGUUCUACAGUCCGACGAUCUGGGUUACUCCUAUUAUUAUCAAGUAGCUGGAAUUGUGAAGGUUGGAGUAGUUAGAUCUUUAGCUUUUAUUCCUUAUUUUUUGUAUUACUCUCCAUGUGUAUAAAUUAUUGAUCAUGUUGCAACAGAGGAUUGAGCAUCA: 4.41 ratio
GGGAGUUCUACAGUCCGACGAUCCUGUAAUAGUGCUUUUCUAUGGAAGAGAUGAAUUGGGAAAACCACCACCUUUUUAUAGAUCACUGUGUUUCUAAAUUAUGACCAAAAAUAUUUUGCUAUUUCUUUAUAUAUGGAAUCUUUCAACAGAGGAUUGAGCAUCA: 0.798 ratio

Mixed results
PhoQ, residues 284 288 289 292 302 303 SSTMSV  fold induction (PhoP, residues 12 14 15 18 19 GQAIL (Escherichia coli, UniProt P23836); Sort-seq, item: YFP reporter; E. coli; PhoQ-PhoP variant library, with: 10 µM Mg2+; reference: high Mg2+ state, higher = stronger signaling): 3.08

Repeated from above (set 2):
CCGGTAATGGCGGAGCATGTGATGGAGGAATGGGCGGTCTTGATTCGCTTGACGCTGCTG: 8450 a.u.
TACTATTATTAGACTTCATTACTGAGTTTATTAGTTGTCTTGATTCGCTTGACGCTGCTG: 3330 a.u.
